Measurements gathered from unrelated publications.
Compare with care: the assays were run in different laboratories.
Organism: Mycobacterium tuberculosis

O=C(NCCOCCO)c1cn(Cc2ccccc2)c2cc(OCc3ccc(C(F)(F)F)cc3)c(Cl)cc2c1=O  MIC90: > 125 µM
CCCCCCCCCC1N=C(N)N=C(N)N1c1ccc(Cl)cc1.Cl (racemic)  MIC90 (LORA; non-replicating, low oxygen): 1.12 µM
C#CCN(Cc1ccc2[nH]cnc(=O)c2c1)c1ccc(C(=O)N[C@@H](CCC(=O)O)C(=O)O)cc1  MIC90 (pptT knockdown without ATc): > 100 µM
Cc1cnc(N)c(S(=O)(=O)N(C)CC(=O)Nc2ccc(=O)n(C)c2)c1  MIC90 (microbial growth; H37RV; 10 days): > 100 µM
CCn1cc(C(=O)NCCNCCO)c(=O)c2cc(OCc3cccc(C(F)(F)F)c3)c(Cl)cc21  MIC90: 1 to 2 µM
CC1=NN(c2ccc(C(=O)O)cc2)C(=O)C1=Cc1ccc(-c2cc(C)c(C)cc2[N+](=O)[O-])o1  MIC90 (microbial growth; H37RV): 45 µM
Cc1cc(S(=O)(=O)N(C)CC(=O)Nc2ccc(N3CCOCC3)c(Cl)c2)c2[nH]ncc2c1  MIC90 (microbial growth; H37RV; 10 days): 12 µM
C#CCN(Cc1ccc2nc(N)nc(N)c2c1)c1ccc(C(=O)N[C@@H](CCC(=O)O)C(=O)O)cc1  MIC90 (microbial growth; H37RV): 5 µM
Cc1cnc(N)c(S(=O)(=O)N(C)CC(=O)Nc2ccc(N3CCOCC3)c(Cl)c2)c1  MIC90 (microbial growth; H37RV; 10 days): > 100 µM
Cc1cc(Nc2nc(N3CCC(c4ccncc4)C3)ncc2F)[nH]n1 (centres unmarked)  MIC90 (microbial growth; H37RV): 0.328 µM
COC(=O)[C@@H](CCCNC(=O)OC(C)(C)C)NC(=O)c1ccc(NCc2ccc3nc(N)nc(N)c3c2Cl)cc1  MIC90 (pptT knockdown without ATc): < 0.1 µM
CCn1cc(C(=O)NCCOCCO)c(=O)c2cc(Cl)c(OCc3ccc(C(F)(F)F)cc3)cc21  MIC90: > 125 µM
Cc1cnc(N)c(S(=O)(=O)N(C)CC(=O)Nc2ccc(OCCN(C)C)c(Cl)c2)c1  MIC90 (microbial growth; H37RV; 10 days): > 100 µM
O=C(NCCNCCO)c1cn(Cc2ccccc2)c2cc(Cl)c(OCc3cccc(Cl)c3)cc2c1=O  MIC90: 8 to 125 µM
Cc1nc(=O)c2cc(CN(C)c3ccc(C(=O)NCCCC(=O)O)s3)ccc2[nH]1  MIC90 (microbial growth; H37RV): > 100 µM
COc1ccc(NC(=O)CN(C)S(=O)(=O)c2cc(C)cc3cn[nH]c23)cc1Cl  MIC90 (microbial growth; H37RV; 10 days): 25 µM
CCOC(=O)CC[C@@H](NC(=O)c1ccc(N(C)Cc2ccc3[nH]c(C)nc(=O)c3c2)s1)C(=O)OCC  MIC90 (pptT knockdown without ATc): 43.7 µM
CN1C/C(=C\c2ccccc2)C2=NN(C(N)=S)[C@H](c3ccccc3)[C@@H]2C1  MIC90 (H37Rv, Sauton's medium; with: biotin 1 µM): > 200 µg/mL
COc1ccc(NC(=O)CN(C)S(=O)(=O)c2cc(C)cnc2N)cc1Cl  MIC90 (microbial growth; H37RV; 10 days): > 100 µM
CN[C@@H]1[C@H](O)[C@H](NC)[C@H]2O[C@]3(O)[C@H](O[C@@H]2[C@H]1O)O[C@H](C)C[C@H]3NC(=O)Cc1cc(Cl)ccn1  MIC90 (MDR and XDR isolates): 1.8 µg/mL
O=C(NCCNCCO)c1cn(Cc2cccc(Br)c2)c2cc(Cl)c(OCc3ccc(C(F)(F)F)cc3)cc2c1=O  MIC90: 3 to 5 µM
Cc1nc2ccc(CN(C)c3ccc(C(=O)N[C@@H](CCC(=O)O)C(=O)O)s3)cc2c(=O)[nH]1  MIC90 (pptT knockdown without ATc): > 100 µM
CN[C@@H]1[C@H](O)[C@H](NC)[C@H]2O[C@]3(O)[C@H](O[C@@H]2[C@H]1O)O[C@H](C)C[C@H]3NC(=O)Cc1ccc(Cl)cn1  MIC90 (MDR and XDR isolates): 1.9 µg/mL

Some of these lines once more:
CCOC(=O)CC[C@@H](NC(=O)c1ccc(N(C)Cc2ccc3[nH]c(C)nc(=O)c3c2)s1)C(=O)OCC  MIC90 (pptT knockdown without ATc): 43.7 µM
